Results collected from several papers.
Numbers after ± are the reported error.

With COc1cc(C(=O)NCCOCCOCCOCCNC(=O)c2ccc([18F])nc2)ccc1NC(=O)C1NC(CC(C)(C)C)C(C#N)(c2ccc(Cl)cc2F)C1c1cccc(Cl)c1F (stereo not drawn) the logD was 3 ± 0.1 (shake-flask; n-octanol/PBS; pH 7.4).
C[C@H](O)[C@@H](NC(=O)[C@H]1CCCN1C(=O)[C@@H](CCCCN)NC(=O)[C@@H](CO)NC(=O)[C@@H](Cc1ccc(O)cc1)NC(=O)[C@@H](CC(N)=O)NC(=O)CCOCCOCCOCCNC(=O)CN1CCN(CC(=O)O)CCN(CC(=O)O)CCN(CC(=O)O)CC1)C(=O)N[C@H](CC(=O)O)C(=O)N[C@H](CCCNC(=N)N)C(=O)N[C@H](CCC(N)=O)C(=O)N[C@H](Cc1ccc(O)cc1)C(=O)N[C@H](Cc1c[nH]cn1)C(=O)N[C@H](Cc1ccccc1)C(N)=O [copper-64 labelled] gave a logD of -3.5 (shake-flask; 1-octanol/water).
With C=C(C)[C@@H]1[C@H]2OC(=O)[C@@H]1[C@]1(O)C[C@H]3O[C@]34C(=O)O[C@H]2[C@]14C the logD was 0.723 (pH 7.4).
The logD of COCC(=O)NCCSc1c(-c2ccc(Br)cc2)[nH]c2ccccc12 is reported as 5 (pH 7.4).
The logD of CC[C@H](C)[C@H](NC(=O)[C@@H](NC(=O)[C@H](CC(N)=O)NC(=O)[C@H](CCC(N)=O)NC(=O)[C@@H]1CCCN1C(=O)[C@@H](NC(=O)[C@H](Cc1ccc(O)cc1)NC(=O)CNC(=O)[C@H](Cc1ccc(O)cc1)NC(=O)[C@H](Cc1c[nH]c2ccccc12)NC(=O)[C@H](Cc1c[nH]cn1)NC(=O)[C@H](Cc1ccc(O)cc1)NC(=O)CCOCCOCCOCCOCCOCCOCCC(=O)NCCCN(CCCNC(=O)CCOCCOCCOCCOCCOCCOCCC(=O)N[C@@H](Cc1ccc(O)cc1)C(=O)N[C@@H](Cc1c[nH]cn1)C(=O)N[C@@H](Cc1c[nH]c2ccccc12)C(=O)N[C@@H](Cc1ccc(O)cc1)C(=O)NCC(=O)N[C@@H](Cc1ccc(O)cc1)C(=O)N[C@H](C(=O)N1CCC[C@H]1C(=O)N[C@@H](CCC(N)=O)C(=O)N[C@@H](CC(N)=O)C(=O)N[C@H](C(=O)N[C@H](C(=O)O)[C@@H](C)CC)C(C)C)[C@@H](C)O)CC(=O)NCCCN(CCCNC(=O)CN(CCCNC(=O)CCOCCOCCOCCOCCOCCOCCC(=O)N[C@@H](Cc1ccc(O)cc1)C(=O)N[C@@H](Cc1c[nH]cn1)C(=O)N[C@@H](Cc1c[nH]c2ccccc12)C(=O)N[C@@H](Cc1ccc(O)cc1)C(=O)NCC(=O)N[C@@H](Cc1ccc(O)cc1)C(=O)N[C@H](C(=O)N1CCC[C@H]1C(=O)N[C@@H](CCC(N)=O)C(=O)N[C@@H](CC(N)=O)C(=O)N[C@H](C(=O)N[C@H](C(=O)O)[C@@H](C)CC)C(C)C)[C@@H](C)O)CCCNC(=O)CCOCCOCCOCCOCCOCCOCCC(=O)N[C@@H](Cc1ccc(O)cc1)C(=O)N[C@@H](Cc1c[nH]cn1)C(=O)N[C@@H](Cc1c[nH]c2ccccc12)C(=O)N[C@@H](Cc1ccc(O)cc1)C(=O)NCC(=O)N[C@@H](Cc1ccc(O)cc1)C(=O)N[C@H](C(=O)N1CCC[C@H]1C(=O)N[C@@H](CCC(N)=O)C(=O)N[C@@H](CC(N)=O)C(=O)N[C@H](C(=O)N[C@H](C(=O)O)[C@@H](C)CC)C(C)C)[C@@H](C)O)CC(=O)NCCOCCOCCOCCOCCC(=O)N[C@@H](CCCCNC(=O)CC[C@H](C(=O)O)N1CCN(CC(=O)O)CCN(CC(=O)O)CC1)C(N)=O)[C@@H](C)O)C(C)C)C(=O)O [gallium-68 labelled] is reported as -2.17 ± 0.21 (1-octanol/phosphate buffer; pH 7.4).
The logD of CC[C@H](C)[C@H](NC(=O)CNC(=O)[C@H](Cc1ccccc1)NC(=O)[C@H](CCCCN)NC(=O)[C@H](CCCCN)NC(=O)[C@H](CCCNC(=N)N)NC(=O)[C@H](CCCNC(=N)N)NC(=O)[C@H](CCCNC(=N)N)NC(=O)[C@H](CCC(N)=O)NC(=O)[C@H](CCCNC(=N)N)NC(=O)[C@H](CCCNC(=N)N)NC(=O)[C@H](CCCCN)NC(=O)[C@H](CCCCN)NC(=O)[C@H](CCCNC(=N)N)NC(=O)CNC(=O)[C@@H](N)Cc1ccc(O)cc1)C(=O)N[C@H](C(=O)N[C@@H](CC(N)=O)C(=O)N[C@@H](CO)C(=O)N[C@@H](CCC(N)=O)C(=O)N[C@@H](CC(C)C)C(=O)N[C@@H](CCCCN)C(=O)N1CCC[C@H]1C(=O)O)[C@@H](C)O is reported as 3.11 ± 0.03 (derivative UV-vis spectrophotometry; DMPC:Chol large unilamellar vesicles vs PBS; 30 min, pH 7.4, 37 °C, lipid ratio 85:15).
CC(=O)O[C@H]1CC[C@]2(C)[C@H]3C[C@@H](OC(C)=O)[C@]4(C)[C@@H](C5=CC(=O)OC5)CC[C@]4(O)[C@@H]3CC[C@@]2(n2nnc3ccccc32)C1 has a logD of 2.91 (pH 7.4).
With O=C(OCCOCC[18F])c1ccccc1-c1c2cc3c4c(c2[o+]c2c5c6c(cc12)CCCN6CCC5)CCCN4CCC3 the logD was 1.97 ± 0.01 (octanol/PBS; pH 7.4).
CC(=O)O[C@H]1CC[C@@]2(C)[C@H](CC[C@@H]3[C@@H]2C[C@@H](OC(C)=O)[C@]2(C)[C@@H](C4=CC(=O)OC4)CC[C@]32O)C1 has a logD of 2.64 (pH 7.4).
CCNc1cc2[o+]c3cc(NCC)c(C)cc3c(-c3ccccc3C(=O)OCCOCC[18F])c2cc1C has a logD of 1.96 ± 0.05 (octanol/PBS; pH 7.4).
CC(N)(CC(F)(F)F)C1C2OC(=O)C1C1(O)CC3OC34C(=O)OC2C14C (stereo not drawn) gave a logD of 0.609 (pH 7.4).
With NC1CCN(C(=O)OC2CCCC3(C2)OOC2(O3)C3CC4CC(C3)CC2C4)CC1 (stereo not drawn) the logD was 2.44 (octanol/PBS; pH 7.4).

Repeated from above:
CC(=O)O[C@H]1CC[C@@]2(C)[C@H](CC[C@@H]3[C@@H]2C[C@@H](OC(C)=O)[C@]2(C)[C@@H](C4=CC(=O)OC4)CC[C@]32O)C1 has a logD of 2.64 (pH 7.4).
